Assay results collected from several papers.
Lines come from different studies, so protocols differ. ± marks the error that the study gave.
ampC: Beta-lactamase (ampC, Escherichia coli K-12, UniProt P00811)
BACE1: Beta-secretase 1 (BACE1, Homo sapiens, UniProt P56817)
Oprk1: Kappa-type opioid receptor (Oprk1, Rattus norvegicus, UniProt P34975)

| Compound | target | assay | system | conditions | scale | measurement | result |
| --- | --- | --- | --- | --- | --- | --- | --- |
| Nc1ncc2ncn([C@@H]3O[C@@H]4COP(=O)(O)O[C@H]5[C@@H](O)[C@H](n6cnc7cnc(N)nc76)O[C@@H]5COP(=O)(O)O[C@H]4[C@H]3O)c2n1 | ydaO riboswitch wild type (Bacillus subtilis) | competition gel-shift | – | concentration not given | reference: c-di-AMP, higher = weaker binding | binding affinity fold loss | > 4.5e+06 |
| Cc1cccc(Nc2c3c(nc4ccccc24)CCC(C)C3)n1 (stereo not drawn) | Acetylcholinesterase (ache, Electrophorus electricus, UniProt O42275) | enzyme activity, inhibitor, Ellman | – | 50 µM | – | inhibition | 33.6% |
| CC(C)C[C@H](NC(=O)[C@H](CC(C)C)NC(=O)[C@H](CC(N)=O)NC(=O)[C@H](Cc1c[nH]c2ccccc12)NC(=O)[C@H](Cc1ccc(O)cc1)NC(=O)[C@H](CCC(=O)O)NC(=O)[C@H](C)NC(=O)[C@@H](N)Cc1ccccc1)C(=O)O | E3 ubiquitin-protein ligase Mdm2 (MDM2, Homo sapiens, UniProt Q00987) | SPR competition binding | – | – | reference: PMI | ΔΔG | 4.62 kcal/mol |
| CC[C@H](C)[C@H](NC(=O)[C@H](CCCNC(=N)N)NC(=O)[C@H](CO)NC(=O)[C@@H](NC(=O)[C@H](CC(=O)O)NC(=O)[C@H](CC(=O)O)NC(=O)CCCCCNC(=O)c1ccc2c(c1)C(=O)OC21c2ccc(O)cc2Oc2cc(O)ccc21)[C@@H](C)O)C(=O)N[C@@H](CCC(=O)O)C(=O)N[C@@H](CCC(=O)O)C(=O)N[C@H](C(=O)N[C@@H](CC(=O)O)C(=O)O)C(C)C | DnaJ homolog subfamily C member 7 (Homo sapiens, UniProt Q99615) | fluorescence polarization | – | pH 7.4 | reference: wild-type Hsp90alpha tracer | affinity increase | ≥ 2 fold |
| CN1C(=O)C2(Cc3ccc(CC45SSC(CO)(C(=O)N4C)N(C)C5=O)cc3)SSC1(CO)C(=O)N2C (racemic) | Histone acetyltransferase p300, CH1 domain (EP300, Homo sapiens, UniProt Q09472) | SPR | – | p300 CH1 domain GST fusion, with: DTT 100 µM | – | association rate constant | 5100 M⁻¹ s⁻¹ |
| CCN(Cc1ccccc1)C(=O)CCc1nc(CN2CCN(C(=O)Cc3ccc(OC)c(OC)c3)CC2)no1 | Sodium channel protein type 9 subunit alpha (SCN9A, Homo sapiens, UniProt Q15858) | whole-cell patch clamp | HEK stable | 1 µM | – | V1/2 of activation | -40.8 ± 2.01 mV |
| CC(C)P(=S)(NP(=[Se])(C(C)C)C(C)C)C(C)C | Alpha-amylase (Bacillus subtilis, UniProt P00691) | binding, FRET | – | 298 K | – | energy transfer efficiency | 36.9% |
| CC(=O)N[C@@H](CC(C)C)C(=O)N[C@@H](CCC(=O)O)C(=O)N[C@@H](Cc1c[nH]cn1)C(=O)N[C@@H](CC(=O)O)C(=O)Nc1ccc2c(C)cc(=O)oc2c1 | Caspase-7 (CASP7, Homo sapiens, UniProt P55210) | substrate cleavage, substrate, fluorogenic AMC release | – | enzyme 0.25 activity units/µL | – | Vmax | 139 ± 12.5 RFU/min |
| CSCC[C@H](NC(=O)[C@@H](NC(=O)[C@H](CC(C)C)NC(=O)[C@@H](NC(=O)[C@H](Cc1c[nH]cn1)NC(=O)CCCCCNC(=O)[C@H](CCCNC(=N)N)NC(=O)[C@H](CCCNC(=N)N)NC(=O)[C@H](CCCNC(=N)N)NC(=O)[C@H](CCC(N)=O)NC(=O)[C@H](CCCNC(=N)N)NC(=O)[C@H](CCCNC(=N)N)NC(=O)[C@H](CCCCN)NC(=O)[C@H](CCCCN)NC(=O)[C@H](CCCNC(=N)N)NC(=O)CNC(=O)[C@@H](N)Cc1ccc(O)cc1)C(C)C)C(C)C)C(=O)N[C@@H](CS)C(=O)N[C@@H](C)C(=O)N[C@H](C(N)=O)[C@@H](C)O | Transitional endoplasmic reticulum ATPase (VCP, Homo sapiens, UniProt P55072) | binding, BLI | – | – | – | koff | 0.023 s⁻¹ |
| CC(=O)NC(Cc1ccc(Br)c(Cl)c1)C(=O)N[C@@H](C)C(=O)N1CCC[C@H]1C(=O)N1CCC[C@H]1C(=O)N[C@@H](CCC(=O)O)C(=O)N[C@@H](Cc1c[nH]cn1)C(=O)N[C@@H](CO)C(=O)N[C@H](C(=O)N[C@@H](C)C(N)=O)[C@@H](C)OP(=O)(O)O (stereo partly drawn) | Serine/threonine-protein kinase D2 (PRKD2, Homo sapiens, UniProt Q9BZL6) | enzyme activity, inhibitor | – | 10 µM | – | inhibition | 0.95% |
| CC(C)CC(NC(=O)C(NC(=O)NC(C(=O)O)C(C)C)C1CCNC(=N)N1)C(=O)NCCCNC(C(=O)O)C(OC1OC(CN)C(O)C1O)C1OC(n2ccc(=O)[nH]c2=O)C(O)C1O (stereo not drawn) | Phospho-N-acetylmuramoyl-pentapeptide-transferase (mraY, Aquifex aeolicus, UniProt O66465) | isothermal titration calorimetry | – | concentration not given, wild type, without Mg2+ | – | binding stoichiometry | 0.65 ± 0.05 |
| O=C(O)CN(c1ccccc1)S(=O)(=O)c1ccccc1 | ampC | – | – | – | – | ligand efficiency | 0.26 |
| O=C(c1cccc(-n2cccc2)c1)N1CCCN(S(=O)(=O)c2ccc(F)cc2)CC1 | Genome polyprotein, 3C protease (rhinovirus B14, UniProt P03303) | protease activity, SAMDI-MS | – | – | – | Hill slope | 1.45 |
| Cc1cc(O)cc(C)c1C[C@@H]1NC(=O)[C@H](CCCCN)NC(=O)[C@H](Cc2ccccc2)NC(=O)[C@@H](CCCNC(N)=O)NC1=O | mu opioid receptor, guinea pig | antagonist | guinea pig ileum | – | – | Ke | 402 ± 14 nM |
| CC1(CCN2CCc3ccccc3C2)Cc2cc(Cl)ccc2C1=O (single isomer, unassigned) | 5-hydroxytryptamine receptor 7 (HTR7, Homo sapiens, UniProt P34969) | β-arrestin recruitment, agonist | – | – | – | Emax | 43.2% |
| CC(C)[C@@H]1NC(=O)[C@H](CCC(N)=O)NC(=O)[C@@H](Cc2ccc(O)cc2)NC(=O)CSC[C@@H](C(N)=O)NC(=O)[C@H](CC(=O)O)NC(=O)[C@H](CCC(=O)O)NC(=O)[C@H](Cc2c[nH]c3ccccc23)NC(=O)[C@@H]2CCCN2C(=O)[C@H](CO)N(C)C(=O)[C@H](C)NC(=O)[C@H](Cc2c[nH]c3ccccc23)NC(=O)[C@H](Cc2c[nH]c3ccccc23)NC(=O)[C@H](C(C)C)NC(=O)[C@H]([C@@H](C)O)NC1=O | 2,3-bisphosphoglycerate-independent phosphoglycerate mutase (gpmI, Staphylococcus aureus, UniProt Q6GIL5) | thermal stability, thermal shift | – | – | – | ΔTm | 17 °C |
| CC[C@H](C)[C@H](NC(=O)[C@H](CCC(N)=O)NC(=O)[C@H](CC(C)C)NC(=O)[C@@H](NC(=O)CNC(=O)[C@H](Cc1ccc(O)cc1)NC(=O)[C@H](CC(=O)O)NC(=O)[C@@H](NC(=O)[C@H](CO)NC(=O)CNC(=O)[C@H](CC(=O)O)NC(=O)[C@@H](NC(=O)[C@H](CC(N)=O)NC(=O)[C@H](CCCNC(=N)N)NC(=O)[C@H](CC(N)=O)NC(=O)[C@@H](NC(=O)[C@H](C)NC(=O)[C@H](CCC(N)=O)NC(=O)[C@@H](NC(=O)[C@H](CC(N)=O)NC(=O)[C@H](Cc1ccccc1)NC(=O)[C@H](CC(N)=O)NC(=O)[C@H](CO)NC(=O)[C@H](CCC(=O)O)NC(=O)[C@H](Cc1ccccc1)NC(=O)[C@H](CCCCN)NC(=O)[C@H](C)NC(=O)[C@H](C)NC(=O)[C@H](CO)NC(=O)[C@@H](NC(=O)[C@H](Cc1c[nH]c2ccccc12)NC(=O)[C@H](CC(N)=O)NC(=O)CNC(=O)[C@H](CC(C)C)NC(=O)[C@H](CO)NC(=O)[C@H](Cc1ccc(O)cc1)NC(=O)CNC(=O)[C@H](CCCNC(=N)N)NC(=O)[C@H](Cc1ccc(O)cc1)NC(=O)[C@H](CC(N)=O)NC(=O)[C@@H](N)CC(=O)O)C(C)C)[C@@H](C)O)[C@@H](C)O)[C@@H](C)O)[C@@H](C)O)[C@@H](C)CC)C(=O)O | Periplasmic serine endoprotease DegP (degP, Escherichia coli, UniProt P0C0V0, C83S/C95S/N322C/S236A) | cage assembly, FRET | – | with: DegP S210A 50 nM | – | Hill coefficient | 1.9 |
| CC(=O)N[C@H]1[C@@H](OP(=O)(O)OP(=O)(O)OC/C=C(/C)CC/C=C(/C)CC/C=C(/C)CC/C=C(/C)CC/C=C(/C)CC/C=C(/C)CC/C=C(/C)CC/C=C(/C)CC/C=C(\C)CC/C=C(\C)CCC=C(C)C)O[C@H](CO)[C@@H](O)[C@@H]1O[C@H](C)C(=O)N[C@@H](C)C(=O)N[C@H](CCC(=O)N[C@@H](CCCCNC(=O)OCCCCCCNC(=S)Nc1ccc(NS(=O)(=O)c2cccc3c(N(C)C)cccc23)cc1)C(=O)N[C@H](C)C(=O)N[C@H](C)C(=O)O)C(=O)O | UDP-N-acetylglucosamine--N-acetylmuramyl-(pentapeptide) pyrophosphoryl-undecaprenol N-acetylglucosamine transferase (murG, Mycolicibacterium smegmatis, UniProt A0R016) | substrate | – | with: UDP-GlcNAc 93.8 µM | – | Km | 36 ± 5 µM |
| O=C(/C=C/c1ccc(O)cc1)c1ccc(N2CCNCC2)cc1 | BACE1 | enzyme activity, inhibitor, fluorescence | – | 10 µM | – | remaining activity | 51.2% |
| CS(=O)(=O)c1ccc(Cn2cc(C(=O)N[C@H]3CCCC[C@@H]3O)c3c(F)cc(F)cc32)cc1 | Muscarinic acetylcholine receptor M1 (CHRM1, Homo sapiens, UniProt P11229) | calcium mobilization, positive allosteric modulator | CHO | with: acetylcholine EC20 | reference: acetylcholine maximum | maximal response | 77 ± 5% |
| C[C@]1(COC(=O)c2ccc(O)c(O)c2)[C@H](C(=O)O)N2C(=O)/C(=C/c3ccccn3)[C@H]2S1(=O)=O | Beta-lactamase OXA-48 (OXA-48, Klebsiella pneumoniae, UniProt Q6XEC0) | enzyme activity, inhibitor, absorbance | – | – | – | kinact/KI | 340000 M⁻¹ s⁻¹ |
| N=C(N)NCCC[C@@H]1NC(=O)[C@H](CCCNC(=N)N)NC(=O)[C@H](NC(=O)[C@H](Cc2ccccc2)NC(=O)CNC(=O)CNC(=O)[C@H](Cc2ccc(O)cc2)NC(=O)c2ccccc2)CC(=O)NC[C@@H](C(=O)N[C@@H](CCCNC(=N)N)C(=O)N2CCC[C@H]2C(=O)N[C@@H](CCCCN)C(N)=O)NC1=O | Oprk1 | binding | – | – | reference: zyklophin | affinity fold decrease | 3.6 fold |
| OB(O)c1cc2ccc(OCc3ccccc3)cc2[nH]1 | ampC | – | – | – | – | ligand efficiency | 0.38 |
| CC(C)C[C@H](NC(=O)[C@H](Cc1ccc2ccccc2c1)NC(=O)CNC(=O)[C@H](NC(=O)[C@@H](N)Cc1ccc(O)cc1)[C@H](C)O)C(=O)N[C@@H](CO)C(N)=O | Kappa-type opioid receptor (OPRK1, Homo sapiens, UniProt P41145) | GTPγS binding, agonist, radiometric | – | cell membranes | – | Emax | 25% |
| CC[C@H](C)[C@H](NC(=O)[C@H](CCC(N)=O)NC(=O)[C@H](CC(C)C)NC(=O)[C@@H](NC(=O)CNC(=O)[C@H](Cc1ccc(O)cc1)NC(=O)[C@H](CC(=O)O)NC(=O)[C@@H](NC(=O)[C@H](CO)NC(=O)CNC(=O)[C@H](CC(=O)O)NC(=O)[C@@H](NC(=O)[C@H](CC(N)=O)NC(=O)[C@@H](N)CCCNC(=N)N)[C@@H](C)O)[C@@H](C)O)[C@@H](C)CC)C(=O)O | Periplasmic serine endoprotease DegP (degP, Escherichia coli, UniProt P0C0V0) | reporter cleavage, activator | – | with: reporter 100 µM | – | concentration for maximal activation | ≥ 2 mM |
| O=C(/C=C/c1ccccc1Br)c1cc2ccccc2oc1=O | BACE1 | enzyme activity, inhibitor, fluorescence | – | 10 µM | – | remaining activity | 92.5% |
| CCN1CCN(C2=Nc3cc(Cl)ccc3Nc3ccccc32)CC1 | Muscarinic acetylcholine receptor M3 (CHRM3, Homo sapiens, UniProt P20309, A239G/Y149C) | calcium signal, agonist, FLIPR | – | – | reference: clozapine N-oxide | Emax | 91% |
| Cc1cc(-c2ccc3ccn(CC(=O)O)c(=O)c3c2)ccc1O[C@H]1O[C@H](CO)[C@@H](O)[C@H](O)[C@@H]1O | Type 1 fimbrin D-mannose specific adhesin, lectin domain (fimH, Escherichia coli K-12, UniProt P08191) | binding, differential scanning fluorimetry | – | – | higher = stronger binding | melting temperature | 74.8 °C |
| CC(C)C[C@H](NC(=O)[C@H](CCCNC(=N)N)NC(=O)[C@H](Cc1c[nH]c2ccccc12)NC(=O)[C@H](Cc1ccccc1)NC(=O)[C@H](Cc1ccccc1)N(C)C(=O)CN)C(=O)N[C@@H](CCCNC(=N)N)C(=O)N[C@@H](CCCNC(=N)N)C(=O)N[C@H](C)C(=O)N[C@@H](CCCNC(=N)N)C(=O)N1CCC[C@H]1C(=O)N[C@@H](CCCCN)C(N)=O | Oprk1 | agonist | CHO cells | 10 µM | reference: dynorphin A(1-13) amide | adenylyl cyclase activity | 90 ± 8% |
| C[C@@]12CC[C@@H]3c4cc(Cl)c(O)c(Cl)c4CC[C@H]3[C@@H]1CCC2=O | Aldo-keto reductase family 1 member C1 (AKR1C1, Homo sapiens, UniProt Q04828) | enzyme activity, inhibitor, absorbance | – | 10 µM, pH 9 | – | inhibition | 84.8% |
